Experimental data from different studies.
Each numbered part is a random draw from the data of one study; scales do not carry over between parts. Substitutions count along the parent as printed.

Set 1
Target: RNA binding protein fox-1 homolog 2, RRM domain, GST-SBP tag (RBFOX2, Homo sapiens, UniProt O43251-10, residues 100-194)
Method: RNA Bind-n-Seq
Form: RNA
Medium: in vitro
Tested at: 365 nM
Notes: natural RNA segment, single round, ends assumed
Baseline: no-protein control
Reading: higher = stronger binding
Construct (chain): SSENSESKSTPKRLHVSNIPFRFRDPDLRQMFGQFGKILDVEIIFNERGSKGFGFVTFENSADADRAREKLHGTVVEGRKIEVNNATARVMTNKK
| Sequence | RBNS enrichment (R) |
| --- | --- |
| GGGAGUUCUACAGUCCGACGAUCCUUCAUUGGCAUUGUUAGUCCCACAGGCCAAGGAUAAGGUUGAAAUGAGACGGCUUGUGUGUGAAAAGAUUUUGGAAAUUACACAGAUGUGGGCUUGUUAUUGGGAUGAAUGGAAUUCUCGGGUGCCAA | 2.24 |
| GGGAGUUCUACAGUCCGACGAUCUACCAUUGCAGUUUGUUCUUUUUUUAAAGUCUAAUUUGCAGCCAAGAACGAGUAAUUCUCACCCCAAGCAACAUCUAAUAGGGACUGAGUGACCCCAGCCCAGCCUAGUGUGGAAUUCUCGGGUGCCAA | 0.35 |
| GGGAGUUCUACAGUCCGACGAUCUUUUGGUUUUUGGUUUUUUUAUCCUUUUACUCCAAUACUCCCCCUGUCACUUUGCCUGGAGGUGCUUCAAGCCUUUAACAAGGAGCAGAGAAGAAUUGGAGCCAGACUUUUGGAAUUCUCGGGUGCCAA | 0.288 |
| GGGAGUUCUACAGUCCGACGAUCGUUGUAUUGUAAGUGGCACUGGGAACCCAGGGUUUCCUUGGGAGUUGAGGCCUUCUUUAUUCCUGCUCUGUCAGCUUUCAUGGUCACUGGAAAUCACUGCCACAGUACAGUGGAAUUCUCGGGUGCCAA | 0.248 |
| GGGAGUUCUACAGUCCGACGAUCCAGUUCUAACUCUAGCUAGAGGCCAGGCUGUGUGCAGAGCUAAAGCACAAAUGAGCAGUACAUCAGCAUGGGCAGAGAAAAUACAGGACUCCAGAUGGGAAGGUUUUAAGUGGAAUUCUCGGGUGCCAA | 7.38 |
| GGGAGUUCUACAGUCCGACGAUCGCAAGGCACCUGCAGGUUGGGCCAUACUGGCCUCGCCUGGCCUGAGGUCUCGCUGAUGCUGGGCUGGGUGCGACCCCAUCUGCCCAGGACGGGGCCGGCCAGGUGGGCGGUGGAAUUCUCGGGUGCCAA | 0.357 |
| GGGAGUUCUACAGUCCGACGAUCGUGAUACAUACGUGUAUUACUCGAUCACUGGAUGUGGAAGUACCCAUUCAUCACAUCUGCCUCAUAGCCCCCAUCUUUGCUGUGCUGAUAGGAUUUAGUUGUGUUUAGGAUGGAAUUCUCGGGUGCCAA | 0.267 |
| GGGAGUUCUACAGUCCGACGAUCAAGAAAAAGGCAGAGGCUUCAGUUUUCUCUCGCCCAAGUCCCUUGCUCCUCCCAACUGCGGCUAAGCAGAGGAUGGCAGUGUUGGAAUAAGAUCUCUCAAAUCUUGGAUUUGGAAUUCUCGGGUGCCAA | 0.302 |

Set 2
Target: CCNA1, cyclin fold, Cln2 fusion (human)
Method: yeast growth competition, sequencing
Medium: yeast
Notes: weak parent motif
Baseline: not given
Reading: higher = stronger binding
Parent: WEE2 docking peptide (human); KELRQKLNFSYCE; partner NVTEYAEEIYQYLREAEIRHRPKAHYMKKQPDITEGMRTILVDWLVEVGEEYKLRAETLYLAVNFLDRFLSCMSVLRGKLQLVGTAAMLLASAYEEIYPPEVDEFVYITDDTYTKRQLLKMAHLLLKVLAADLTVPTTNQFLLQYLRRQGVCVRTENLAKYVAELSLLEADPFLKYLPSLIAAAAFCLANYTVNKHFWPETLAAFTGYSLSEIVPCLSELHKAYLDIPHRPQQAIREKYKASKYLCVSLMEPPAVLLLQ
| Change | normalised enrichment score |
| --- | --- |
| KELRQKLNFAYCE [S10A] | 0.0412 |
| KELAQKLNFSYCE [R4A] | -0.459 |
| KELRQKLAFSYCE [N8A] | 0.324 |
| KALRQKLNFSYCE [E2A] | -0.17 |
| KELRAKLNFSYCE [Q5A] | -0.116 |
| KELRQKANFSYCE [L7A] | -0.112 |

Set 3
Target: UBE2Q1 UBC core domain (UniProt Q7Z7E8)
Method: yeast two-hybrid
Medium: yeast
Notes: mostly zero background
Baseline: not given
Reading: higher = stronger interaction
B1: TRIM5 RING domain (UniProt Q9C035); chain LREVKLSPEGQKVDHCARHGEKLLLFCQEDGKVICWLCERSQEHRGHHTFLTEEVAREYQVKL
B2: TRIM43 RING domain (UniProt Q96BQ3); chain FSHAFQKELTCVICLNYLVDPVTICCGHSFCRPCLCLSWEEAQSPANCPACREPSPKMDFKT
B3: DTX4 RING domain (UniProt Q9Y2E6); chain QKVRHPPDEDCTICMERLTAPSGYKGPQPTVKPDLVGKLSRCGHVYHIYCLVAMYNNGNKDGSLQCPTCKTIYGVKTGTQ
B4: TRIM24 RING domain (UniProt O15164); chain EAARLNLLDTCAVCHQNIQSRAPKLLPCLHSFCQRCLPAPQRYLMLPAPMLGSAETPPPVPAPGSPVSGSSPFATQVGVIRCPVCSQECAERHII
B5: RC3H1 RING domain (UniProt Q5TC82); chain QAPQWTDFLSCPICTQTFDETIRKPISLGCGHTVCKMCLNKLHRKACPFDQTTINTDIELL
Construct (chain): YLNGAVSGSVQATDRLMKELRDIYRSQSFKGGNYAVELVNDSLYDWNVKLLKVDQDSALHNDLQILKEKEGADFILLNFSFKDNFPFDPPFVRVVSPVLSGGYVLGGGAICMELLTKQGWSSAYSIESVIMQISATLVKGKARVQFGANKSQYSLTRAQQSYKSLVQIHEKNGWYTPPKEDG
| Molecule | lacZ reporter activity |
| --- | --- |
| B1 (TRIM5 RING domain) | 0 |
| B2 (TRIM43 RING domain) | 0 |
| B3 (DTX4 RING domain) | 0 |
| GAAPGPEAAECLVCSELALLVLFSPCQHRTVCEECARRMKKCIRCQVVVSKKLRPD (MIB2 RING domain (UniProt Q96AX9)) | 0 |
| B4 (TRIM24 RING domain) | 0 |
| B5 (RC3H1 RING domain) | 0 |

Set 4
Target: Ras GTPase-activating protein-binding protein 1, full length (G3BP1, Homo sapiens, UniProt Q13283)
Chain of UniProt Q13283 (whole entry, looked up): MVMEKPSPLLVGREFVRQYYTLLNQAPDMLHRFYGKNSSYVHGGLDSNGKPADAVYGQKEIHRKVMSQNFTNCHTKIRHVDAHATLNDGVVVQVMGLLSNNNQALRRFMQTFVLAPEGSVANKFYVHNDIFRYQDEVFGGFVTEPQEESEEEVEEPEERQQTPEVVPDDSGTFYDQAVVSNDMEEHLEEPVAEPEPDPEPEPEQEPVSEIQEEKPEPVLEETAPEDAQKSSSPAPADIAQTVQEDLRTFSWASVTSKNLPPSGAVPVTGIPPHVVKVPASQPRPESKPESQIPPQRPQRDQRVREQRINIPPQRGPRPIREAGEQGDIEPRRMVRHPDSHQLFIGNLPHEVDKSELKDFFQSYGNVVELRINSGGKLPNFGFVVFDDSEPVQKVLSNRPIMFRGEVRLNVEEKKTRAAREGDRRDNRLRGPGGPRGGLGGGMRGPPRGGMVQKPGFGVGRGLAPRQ
Method: RNA Bind-n-Seq
Form: RNA
Medium: in vitro
Tested at: 200 nM
Notes: whole 134-nt RNA, ends assumed
Together with: 150 mM LiCl
Baseline: input library
Reading: higher = stronger binding
Each molecule: 7-deaza-guanosine replaces G
| Sequence | log2 enrichment |
| --- | --- |
| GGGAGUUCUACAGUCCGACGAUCACCAUGCAGGUGGGCAUCUUUGGGAAGUCGGGCAAGGGGGGGAUAGGGAGGGGGGUAACACUUUGGGAACAGGUGGUCCCAGGUCGUUUCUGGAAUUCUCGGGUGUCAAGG | 0.992 |
| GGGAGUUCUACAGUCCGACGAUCUCAAGUCCUGUGCUACACAUCGUAUGUACCGAAUCGGGGAAGGGAAGGGAAGGGAAAGUAUUAUGUUACGCCGUUCGGAUCUGCACUUCCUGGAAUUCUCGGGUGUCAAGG | -0.362 |
| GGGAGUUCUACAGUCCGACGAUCUCCUGUGCUACACAUCGUAUGUACCGAAUCGGUUUUUUGGGUUUUUUGGGGUUUUUUGGGAAAGUAUUAUGUUACGCCGUUCGGAUCUGCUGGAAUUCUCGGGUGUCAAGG | 0.565 |
| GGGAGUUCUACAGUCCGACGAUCCUCAAGUCCUGUGCUACACAUCGUAUGUACCGAAUCGGUUUGGGUUUGGUUUGGAAAGUAUUAUGUUACGCCGUUCGGAUCUGCACUUCCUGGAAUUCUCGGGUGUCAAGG | 0.206 |
| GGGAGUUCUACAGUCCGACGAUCUCCUGUGCUACACAUCGUAUGUACCGAAUCGGGGAAAGGGGAAAGGGGAAAAAAAGGGGAAAGUAUUAUGUUACGCCGUUCGGAUCUGCAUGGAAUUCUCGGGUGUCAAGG | 0.656 |
| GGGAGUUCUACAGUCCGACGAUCCAAGUCCUGUGCUACACAUCGUAUGUACCGAAUCGGGCCCCGGGCCCCGGCCCCGGAAAGUAUUAUGUUACGCCGUUCGGAUCUGCACUUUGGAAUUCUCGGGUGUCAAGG | -1.37 |
| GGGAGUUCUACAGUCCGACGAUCUCAAGUCCUGUGCUACACAUCGUAUGUACCGAAUCGGGAAAGGGAAAGGAAAGGAAAGUAUUAUGUUACGCCGUUCGGAUCUGCACUUCCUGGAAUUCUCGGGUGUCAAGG | -0.555 |
| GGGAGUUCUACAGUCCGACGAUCUGGCCCUGGUGGCAUGCGGGGAGGAAGAGGUGGCCUCAUGGAUCGUGGUGGUCCCGGUGGAAUGUACAGAGGUGGCCGUGGUGGAGACAGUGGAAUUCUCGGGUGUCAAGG | -0.165 |

Some of these lines once more (set 2):
| Change | normalised enrichment score |
| --- | --- |
| KELRAKLNFSYCE [Q5A] | -0.116 |
| KELRQKLNFAYCE [S10A] | 0.0412 |
